# Measured values gathered from unrelated publications.
# Sample: plasma
Structure (SMILES),test,test system,setting,scale,measurement,value
C=CC(=O)NC1CCN(c2ncc3ncnc(Nc4ccc(Oc5ccc6c(c5)ncn6C)c(C)c4)c3n2)CC1,,healthy male volunteers,"oral solution, 60 mg",reference: compound over total radioactivity,Cmax ratio,0.804
NC(=O)c1[nH]cnc1N,,leiomyosarcoma patients,"intravenous, dose not given, cycle 2 day 1, together with: dacarbazine staggered",reference: cycle 1 day 1,Cmax increase,69.4%
COc1ccc([C@@H](O)c2cc(-c3ncnc4cc(N5CCOCC5)ccc34)c(F)cc2Cl)nn1,mixed model,healthy volunteers,"oral, 100 mg, high-fat fed tablet test arm",,Cmax geometric LS mean,286 ng/mL
O=C(c1cccnc1-c1ccncc1)N1CCC(O)(Cc2ccccc2)CC1,,healthy Japanese adults,"oral, 100 mg twice daily, day 7",,Cmax,204 ng/mL
CNC(=O)c1cc(Oc2ccc(NC(=O)Nc3ccc(Cl)c(C(F)(F)F)c3)cc2)cc[n+]1[O-],,patients,"oral, geometric mean, together with: rifampin",reference: with rifampin over without rifampin,Cmax ratio,1.59
FC(F)(F)c1ccc(CNc2ccc(Cc3c[nH]c4ncc(Cl)cc34)cn2)cn1,,healthy volunteers,"oral, 600 mg, together with: rifampin",reference: with rifampin over alone,Cmax ratio,0.67
N[C@@H]1c2ccccc2OC12CCN(c1cnc3c(N4CCCc5ncccc54)n[nH]c3n1)CC2,,advanced metastatic solid tumour patients,"oral, 10 mg once daily, cycle 1 day 15, geometric mean",,Cmax,150 ng/mL
N#CCNC(=O)c1ccc(-c2ccnc(Nc3ccc(N4CCOCC4)cc3)n2)cc1,,healthy volunteers,"oral, dose not given, together with: rifampin single-dose",reference: compound alone,Cmax increase,40%
CCCCCCCOc1ccc(CCC(N)(CO)CO)cc1C(F)(F)F.Cl,,healthy men,"oral, 0.75 mg, day 21",,Cmax,4.68 ng/mL
N#CCNC(=O)c1ccc(-c2ccnc(Nc3ccc(N4CCOCC4=O)cc3)n2)cc1,,healthy volunteers,"dose not given, together with: ritonavir multiple-dose",reference: with ritonavir over alone,Cmax geometric mean ratio,130%
CC[C@H](C)CCCCC(=O)N[C@@H](CCN)C(=O)N[C@H](C(=O)N[C@@H](CCN)C(=O)N[C@H]1CCNC(=O)[C@H]([C@@H](C)O)NC(=O)[C@H](CCN)NC(=O)[C@H](CCN)NC(=O)[C@H](CC(C)C)NC(=O)[C@@H](Cc2ccccc2)NC(=O)[C@H](CCN)NC1=O)[C@@H](C)O,,long-term haemodialysis patients,"IV, 0.75 mg/kg",reference: healthy subjects,Cmax reduction,29%
